Assay results of several laboratories.
Numbered parts are unrelated; each lists some results of a single study.

Series 1 — technique: RNA Bind-n-Seq; form: RNA; matrix: in vitro; tested at: 200 nM; notes: whole 134-nt RNA, ends assumed; with: 150 mM LiCl; baseline: input library; direction: higher = stronger binding; each molecule: 7-deaza-guanosine replaces G
Target: Fragile X messenger ribonucleoprotein 1, C-terminal low-complexity region (Fmr1, Mus musculus, UniProt P35922)
Shared flanks, not repeated: GGGAGUUCUACAGUCCGACGAUC … UGGAAUUCUCGGGUGUCAAGG
`UCAAGUCCUGUGCUACACAUCGUAUGUACCGAAUCGGGGAAGGAAGGGGAAGGGAAAGUAUUAUGUUACGCCGUUCGGAUCUGCACUUCC` gave a log2 enrichment of -0.678.
For `UCCUGUGCUACACAUCGUAUGUACCGAAUCGGGGCCCCCGGGGCCCCCGGGGCCCCCGGGAAAGUAUUAUGUUACGCCGUUCGGAUCUGC`, the log2 enrichment was 0.455.
`GUCCUGUGCUACACAUCGUAUGUACCGAAUCGGGAAAAAAAGGGAAAGGGUUUUUGGGAAAGUAUUAUGUUACGCCGUUCGGAUCUGCAC` has a log2 enrichment of -1.51.
`UCAAGUCCUGUGCUACACAUCGUAUGUACCGAAUCGGGUUUGGGUUUGGUUUGGGAAAGUAUUAUGUUACGCCGUUCGGAUCUGCACUUC` gave a log2 enrichment of -1.29.
With `UCGGCUACACUGCCCGGAGAAUUCUCAAUGAGGAUGGCAGCCCUAACCUGGACUUCAAGCCUGAAGACCAGCCCCAUUUUGACAUCAAGG` the log2 enrichment was -1.59.
With `UGGGAGGUGGAUUUCGUUUAUUUUUUUAGCUCAUUUCCAGGGGUGGGAAUUUUUUUUUAAUAUGUGUCAUGAAUAAAGUUGUUUUUGAAA` the log2 enrichment was 0.516.
The log2 enrichment of `GUCCUGUGCUACACAUCGUAUGUACCGAAUCGGUUUUUGGGUUUUUGGGGUUUUUGGGAAAGUAUUAUGUUACGCCGUUCGGAUCUGCAC` is reported as -0.69.
The log2 enrichment of `UUUGCUUGCAGUAUCUGUUUCUCUUCCUAGGCUCAAGUUGGUGACCCAAGCCUAUUGUAAACAAGUGAUUAUCUCAAAGGGAGAUGCCAA` is reported as -1.16.

Series 2 — technique: RNA Bind-n-Seq; form: RNA; matrix: in vitro; tested at: 365 nM; baseline: no-protein control; direction: higher = stronger binding
Target: RNA binding protein fox-1 homolog 2, RRM domain, GST-SBP tag (RBFOX2, Homo sapiens, UniProt O43251-10, residues 100-194)
Notes: natural RNA segment, single round, ends assumed
Shared flanks, not repeated: GGGAGUUCUACAGUCCGACGAUC … UGGAAUUCUCGGGUGCCAA
Construct (chain): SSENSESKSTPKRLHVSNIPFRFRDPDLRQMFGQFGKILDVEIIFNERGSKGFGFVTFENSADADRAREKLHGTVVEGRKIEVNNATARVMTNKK
`UUUCACUCUAUCCCUGCUUCAGUUUUUGCAGAUUAACAGUUCUAUUAGUGAUUUGGAAAGUUAACAGUAAGAAGACUAACUUUUCAAAACAGUUGCAUCUGUAGAUUAAG`: “RBNS enrichment (R)” 0.431.
For `UCAUGAGCAGAUCAGGACACUUAGCAAAUGUAAAAAUAAAAUCUAACUCUCAUUUGACAAGCAGAGAAAGAAAAGUUAAAUACCAGAUAAGCUUUUGAUUUUUGUAUUGU`, “RBNS enrichment (R)” read 0.517.
`CAAAAGGUGUCUAUAGAACUAGUGGGGCUUCUGCAUGUGAAAAACGGUUUUCCAUAGGCAUUAAAGUGCUGAAUGCUCAGUCUGAUCAACAAGUGGGCACCUGCACUACC` — result for “RBNS enrichment (R)”: 2.5.
Under “RBNS enrichment (R)”, `UGAUGAUUGUAGAUUAAGCUGAAACAUAUAAUGAGAGCAAUGAGAACAAGUUUGUUUUGCCUGAUACAGUAUUAUAAUUGGUUUUGUAACUUUGAAGUCUUGUAUGAUUU` is recorded as 1.29.
`UAGUCUAAAUUAUUUCAACUGGAAAAAAGAAAAAAGAGUCCUCUUCUUUUCCCAGCCUUUUGCAGAACACAGUAGACAGAACUGCCACCUUCAAUUGGUACUUUAUUCUU` — result for “RBNS enrichment (R)”: 0.312.
`UUUUAAGCUGCAGCCCCGCUGUUCCUUUUCUCCUCUGUCCCAUUUCCUACCUUACAUGAAAUCCAUUCAACCGGCUCUGGACACUUCUCUUAUCUGUUCCCUUCCUGGUU` — result for “RBNS enrichment (R)”: 0.283.
Under “RBNS enrichment (R)”, `ACAAGGAGAACGCAGGUUGAUGCAAGAGGUGGAAAUGUUCUCCCAUAUCAAGAUGCGACCCAAGGGGCUAAGUGGGAACAGUGGUUAUGUGGACUCGUAAGAUUCACAGA` is recorded as 1.68.
`UUCCCCAGUCCAGGGCUCCCCUGCUCCUUUCCCUUCCCUGUACUGGGGUAGCUCCUGCCUGCUCUCCCUGCGUUGCCUAGGGUAAAGCCUCCAGAUUUGCCAUACUGAGC` — result for “RBNS enrichment (R)”: 1.36.

Series 3 — technique: RNA Bind-n-Seq; form: RNA; matrix: in vitro; tested at: not given; baseline: input RNA pool; direction: higher = stronger binding
Target: RING finger protein unkempt homolog, zinc fingers 1-6, GST-SBP tag (UNK, Homo sapiens, UniProt Q9C0B0, residues 30-357)
Notes: RNA with constant flanks, human and mouse sites, ends assumed
Shared flanks, not repeated: GGGAGUUCUACAGUCCGACGAUC … CAACAGAGGAUUGAGCAUCA
Residues (chain): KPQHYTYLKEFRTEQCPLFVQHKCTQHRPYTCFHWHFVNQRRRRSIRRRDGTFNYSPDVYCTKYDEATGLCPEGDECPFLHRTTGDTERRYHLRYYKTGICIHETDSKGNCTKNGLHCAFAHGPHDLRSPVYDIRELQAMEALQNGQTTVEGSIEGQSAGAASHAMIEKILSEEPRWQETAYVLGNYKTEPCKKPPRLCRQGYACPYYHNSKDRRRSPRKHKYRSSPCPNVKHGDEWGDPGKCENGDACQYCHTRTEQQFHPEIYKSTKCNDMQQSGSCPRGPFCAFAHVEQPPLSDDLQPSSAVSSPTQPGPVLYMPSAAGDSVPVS
With `UGAAAAUCUAAAUACUCCUUUUGCAAUGAAUUACCUUUUUCUGGAGGAGGGGUAGUCAGGGGAGCUAAGACAAGGUCCCUCUGUGUAACUCUGACUGUCCUAGAACUUGCUUGCUAUGUA` the bound/input enrichment was 0.259 ratio.
For `UCACCGAACUGCAGCACCCAGGCGUCGCUUUCUGCGGAGCUCUGCUUGCCAGUCAGCGAGUAGCACUCCUUGGAGAGCAAGUUGAACCCUUCGGCCUUGACCUCCGCCACCCGAUUGGGG`, the bound/input enrichment was 0.0591 ratio.
With `ACAUCCGCAAGAAGACCAGACUGCUGGUGGUGUUACAAGGCUACACAGAUGUUAUUGAUGUUGUCCAGGCCCUGCAGACCCACCCAGACUCAAAUGUCAAGGCCUCCUUCACCAUUGGUG` the bound/input enrichment was 0.0784 ratio.
For `UGUCCACAAGUGGCCGACAUGGAACAUGCUGAGCAGUGGCUCCUCUGAAUGUUCACUUUAUUAGUCAUGUAUAUUUUAAAUGCUAACAUUUGAUGAAUGUAAGUUUCCACAUUGUUGCUG`, the bound/input enrichment was 0.979 ratio.
`ACCUGUCCUGUGUGCUAAGAGCUAUGCAGCUUAGCUGAGGCGCCUAGAUUACUAGAUGUGCUGUAUCACGGGGAAUGAGGUGGGGGUGCUUAUUUUUUAAUGAACUAAUCAGAGCCUCUU` gave a bound/input enrichment of 0.307 ratio.
With `CAACAGCUACUGGAUACUGAUAGCUAUCAAACCUCAAAUUUAAAGAUUUUCCUUCAUGGAAAAGUUACUAUACUUUGCAAGAAACCACUGAACGUUGUCAUUGGAUAUUUUUUCAGCAAA` the bound/input enrichment was 0.238 ratio.
For `CUUUUUUUAAAAAAAACAUUUCACCACCCACCAUCACCCCAAUCCAACCCACACCGAACCCUCGCGCACCCCAACCCCCAACAACAAACAACAACAACAACAACUGCAAAACAGAAAACA`, the bound/input enrichment was 0.53 ratio.
`CCUUAUGUCUAUGUGGAAAUCCACGGAAUUCCUGCCGACUGCGCGGAGCAAAGGACAAAAACGGUGAACCAGAAUGGAGAUGCUCCUAUUUUUGACGAGAGCUUUGAGUUUCAGAUUAAC` gave a bound/input enrichment of 0.114 ratio.

Series 4 — technique: protein binding microarray; form: double-stranded DNA, one strand shown; matrix: in vitro; tested at: not given; baseline: not given; direction: higher = stronger binding
Target: Histone acetyltransferase KAT6A, winged helix 2, GST fusion (KAT6A, Homo sapiens, UniProt Q92794, residues 85-181)
Notes: 8-mer, flanks averaged, mean of 2 arrays, mostly near background
Construct (chain): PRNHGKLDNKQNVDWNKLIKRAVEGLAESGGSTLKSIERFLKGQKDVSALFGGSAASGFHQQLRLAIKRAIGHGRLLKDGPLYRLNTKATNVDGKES
With `CCTGTGAA` the E-score was -0.0119.
With `CAGAAGCC` the E-score was 0.154.
`GAGAAAAC` gave an E-score of -0.0675.
`GAGCAAAA` has an E-score of 0.0763.
With `AGACGGAC` the E-score was -0.0239.
`AGATGTGC` has an E-score of -0.144.
The E-score of `AGCTTGTA` is reported as 0.0656.
`CCCATCGG` has an E-score of 0.218.
`CAACGCTG` has an E-score of 0.101.
`CATGTGAA` gave an E-score of -0.168.
`ATCACTTC` has an E-score of -0.0408.
`CCTGCGTC` gave an E-score of 0.152.
For `ACTCCTAT`, the E-score was -0.125.
The E-score of `CGTCCTCC` is reported as -0.115.
`GAGTCATA` gave an E-score of -0.122.
`ACTCCAGC` gave an E-score of 0.0253.
The E-score of `CGCAGGAA` is reported as 0.0352.

Series 5 — technique: universal PBM; form: double-stranded DNA, one strand shown; matrix: in vitro; tested at: 600 nM; direction: higher = stronger binding
Target: Sal-like protein 4, full length isoform A (SALL4, Homo sapiens, UniProt Q9UJQ4, residues 1-1053)
Sequence of UniProt Q9UJQ4 (whole entry, looked up): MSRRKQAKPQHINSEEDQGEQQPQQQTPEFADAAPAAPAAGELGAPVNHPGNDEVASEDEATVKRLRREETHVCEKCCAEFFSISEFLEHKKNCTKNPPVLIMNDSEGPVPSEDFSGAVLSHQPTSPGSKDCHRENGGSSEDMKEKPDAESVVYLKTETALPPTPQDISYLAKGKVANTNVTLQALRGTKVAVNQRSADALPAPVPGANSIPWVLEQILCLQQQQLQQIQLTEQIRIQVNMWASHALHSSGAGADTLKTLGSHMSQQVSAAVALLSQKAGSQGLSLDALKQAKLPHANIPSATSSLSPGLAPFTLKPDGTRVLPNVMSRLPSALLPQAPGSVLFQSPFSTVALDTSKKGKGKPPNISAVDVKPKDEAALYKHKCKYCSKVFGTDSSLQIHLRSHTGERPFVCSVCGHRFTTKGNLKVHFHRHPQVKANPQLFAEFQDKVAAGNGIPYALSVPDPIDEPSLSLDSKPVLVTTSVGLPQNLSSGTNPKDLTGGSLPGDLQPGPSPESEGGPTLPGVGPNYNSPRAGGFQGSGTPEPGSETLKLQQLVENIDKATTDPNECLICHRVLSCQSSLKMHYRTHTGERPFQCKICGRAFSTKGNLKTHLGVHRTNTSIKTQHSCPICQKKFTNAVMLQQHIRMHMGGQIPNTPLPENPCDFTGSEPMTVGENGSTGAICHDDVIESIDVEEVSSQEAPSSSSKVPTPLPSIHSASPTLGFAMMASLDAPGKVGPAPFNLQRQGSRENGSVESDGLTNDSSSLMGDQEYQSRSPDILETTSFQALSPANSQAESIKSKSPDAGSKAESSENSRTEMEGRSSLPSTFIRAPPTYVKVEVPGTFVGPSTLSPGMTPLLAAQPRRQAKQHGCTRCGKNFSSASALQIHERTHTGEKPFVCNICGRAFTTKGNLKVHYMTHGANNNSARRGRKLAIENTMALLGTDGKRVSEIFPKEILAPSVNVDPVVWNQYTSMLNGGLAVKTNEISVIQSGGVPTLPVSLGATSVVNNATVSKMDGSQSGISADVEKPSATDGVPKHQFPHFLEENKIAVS
Notes: 8-mer, flanks averaged, mean of replicates
`CGAGCAAC` has an E-score of -0.203.
The E-score of `GCGGGCAC` is reported as -0.167.
With `GAACTCCA` the E-score was -0.0374.
`GCAGAAAA` has an E-score of 0.0568.
The E-score of `ACTATTAC` is reported as 0.245.
`CAAGTGGG` has an E-score of -0.0715.
`ATGCTATG` has an E-score of 0.237.
`AGCGTACT` gave an E-score of -0.121.
With `CGTGATAG` the E-score was -0.0447.
With `ACACGCTC` the E-score was -0.0607.
`AGCAACGG` has an E-score of -0.154.
With `GCAAGAGC` the E-score was -0.179.
`ATGACGCA` has an E-score of 0.0824.
The E-score of `GGAATGAC` is reported as -0.0267.
`GCCGGTCA` has an E-score of -0.287.
For `CATCTTAG`, the E-score was 0.0394.
For `ACGCGCCC`, the E-score was -0.273.
With `CACGACGG` the E-score was -0.144.
`TAACCGTA` gave an E-score of 0.149.
With `ATTACGTA` the E-score was 0.301.
`CTAAGTTA` has an E-score of 0.244.
The E-score of `AAAGCTCA` is reported as -0.00179.
`ATGCTGTG` has an E-score of 0.0257.

A few entries again (series 2):
Under “RBNS enrichment (R)”, `UGAUGAUUGUAGAUUAAGCUGAAACAUAUAAUGAGAGCAAUGAGAACAAGUUUGUUUUGCCUGAUACAGUAUUAUAAUUGGUUUUGUAACUUUGAAGUCUUGUAUGAUUU` is recorded as 1.29.
`CAAAAGGUGUCUAUAGAACUAGUGGGGCUUCUGCAUGUGAAAAACGGUUUUCCAUAGGCAUUAAAGUGCUGAAUGCUCAGUCUGAUCAACAAGUGGGCACCUGCACUACC` — result for “RBNS enrichment (R)”: 2.5.
`UUUUAAGCUGCAGCCCCGCUGUUCCUUUUCUCCUCUGUCCCAUUUCCUACCUUACAUGAAAUCCAUUCAACCGGCUCUGGACACUUCUCUUAUCUGUUCCCUUCCUGGUU` — result for “RBNS enrichment (R)”: 0.283.
For `UCAUGAGCAGAUCAGGACACUUAGCAAAUGUAAAAAUAAAAUCUAACUCUCAUUUGACAAGCAGAGAAAGAAAAGUUAAAUACCAGAUAAGCUUUUGAUUUUUGUAUUGU`, “RBNS enrichment (R)” read 0.517.
`UAGUCUAAAUUAUUUCAACUGGAAAAAAGAAAAAAGAGUCCUCUUCUUUUCCCAGCCUUUUGCAGAACACAGUAGACAGAACUGCCACCUUCAAUUGGUACUUUAUUCUU` — result for “RBNS enrichment (R)”: 0.312.
Under “RBNS enrichment (R)”, `ACAAGGAGAACGCAGGUUGAUGCAAGAGGUGGAAAUGUUCUCCCAUAUCAAGAUGCGACCCAAGGGGCUAAGUGGGAACAGUGGUUAUGUGGACUCGUAAGAUUCACAGA` is recorded as 1.68.
`UUUCACUCUAUCCCUGCUUCAGUUUUUGCAGAUUAACAGUUCUAUUAGUGAUUUGGAAAGUUAACAGUAAGAAGACUAACUUUUCAAAACAGUUGCAUCUGUAGAUUAAG`: “RBNS enrichment (R)” 0.431.
`UUCCCCAGUCCAGGGCUCCCCUGCUCCUUUCCCUUCCCUGUACUGGGGUAGCUCCUGCCUGCUCUCCCUGCGUUGCCUAGGGUAAAGCCUCCAGAUUUGCCAUACUGAGC` — result for “RBNS enrichment (R)”: 1.36.
